Experimental data from different studies.
A part holds a random share of what one study measured.

Study 1
Target: Interferon regulatory factor 5, full length, phosphomimetic (IRF5, Homo sapiens, UniProt Q13568-2, residues 1-514, S451D/S453D/S456D/S462D)
Method: protein-binding microarray
Molecule type: double-stranded DNA, one strand shown
Medium: in vitro
Concentration: 940 nM top
Setting: 60-bp whole probe
With: salmon DNA 0.4 mg/ml
Relative to: random background probes
Reading: higher = stronger binding
Measurement: fitted relative affinity
Shared flanks, not repeated: GCCTAGCAC … GTCTTGATTCGCTTGACGCTGCTG
TTAGGACTGGGACTGCGTTAGTGCTAG: -0.633 z-score
TAAGATCTCAGTTTCGATTAGTGCTAG: 7.81 z-score
GACAAACTGAGTATCGAGACGTGCTAG: 1.4 z-score
GACGGTATCGGTCTTGGGACGTGCTAG: 7.6 z-score
CTTTACATGGGTTTTCAGCTGGTGCTA: -0.0577 z-score
TTAGATATCGGGTATCGATTCGTGCTA: 2.81 z-score
GACGGTTTCCTACTGCCGACGTGCTAG: 1.19 z-score
TTAAGTATCGACACTGGGTTAGTGCTA: 4.93 z-score
TTAGGACTGCGTTTCGGTTAGTGCTAG: 2.48 z-score
GACGGGATCGGGACTGGGGACGTGCTA: -0.223 z-score
GACGATTTCGGGTCTCGAGACGTGCTA: 0.814 z-score
GGATGACTCCCTCTCTGGCCGTGCTAG: 0.0938 z-score
GACGGTCTCCTTTTACTGACGTGCTAG: 0.755 z-score
TTAGGTTTCATTTCCCTTTAGTGCTAG: 6.46 z-score
TTAGATATCGAGTATCGATTAGTGCTA: 3.72 z-score
GACGGTCTCAGTTTCGAGACGTGCTAG: 4.67 z-score
GACGGTTTCGGCTTTCGGGACGTGCTA: 8.89 z-score
TTAGGTTTCCTTCTCCATTAGTGCTAG: 1.83 z-score
TCAGCTTCCTCTTTCTCACTGTGCTAG: 1.38 z-score

Study 2
Target: Histone acetyltransferase KAT6A, winged helix 1, GST fusion (KAT6A, Homo sapiens, UniProt Q92794, residues 1-85)
Method: protein binding microarray
Molecule type: double-stranded DNA, one strand shown
Medium: in vitro
Concentration: not given
Setting: 8-mer, flanks averaged, mean of 2 arrays, mostly near background
Relative to: not given
Reading: higher = stronger binding
Measurement: E-score
Target sequence (chain): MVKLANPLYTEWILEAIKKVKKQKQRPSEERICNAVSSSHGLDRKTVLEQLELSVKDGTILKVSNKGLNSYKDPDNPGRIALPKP
CAGCGAGC: 0.0582
GGTCACAC: 0.00856
AAGCGGTC: 0.247
ATGCTGGA: -0.207
AAGCGTGT: 0.14
GGTCCAGA: -0.115
ACGGCACC: 0.307
CATTTACC: -0.0804
GGGCGAAC: 0.0409
AACCCGAT: 0.0777
CCCGACAG: 0.191
CTTCAAGA: -0.19
CCATGACG: 0.0686
AGCCCTAT: -0.0655
CGTGGATC: 0.00235
CTCGATGC: -0.0488
ATAGAAAT: -0.073
AAGACCAG: -0.165
AATAAAGG: -0.09
CACGCAAC: 0.142
CACTCAGG: -0.111
CAGCGAGA: 0.0338
AAAGTGGG: -0.162
ACTCGGTA: -0.102
CCTGGCTA: -0.263

Study 3
Target: RNA binding protein fox-1 homolog 2, RRM domain, GST-SBP tag (RBFOX2, Homo sapiens, UniProt O43251-10, residues 100-194)
Method: RNA Bind-n-Seq
Molecule type: RNA
Medium: in vitro
Concentration: 365 nM
Setting: natural RNA segment, single round, ends assumed
Relative to: no-protein control
Reading: higher = stronger binding
Measurement: RBNS enrichment (R)
Shared flanks, not repeated: GGGAGUUCUACAGUCCGACGAUC … UGGAAUUCUCGGGUGCCAA
Construct (chain): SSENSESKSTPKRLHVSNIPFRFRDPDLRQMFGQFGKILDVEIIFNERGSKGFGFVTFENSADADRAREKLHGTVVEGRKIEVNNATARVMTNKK
CAGAUUGGAAGAAUGGACUCUAAGGAGGCUGUUUGCACAAGGCUCUCCACUCACCAGCUGUUGAGUCUGUGCGGAAGACAGGAUCUUAUUACUUCAAUGGCAGCAGCGAU: 0.252
UUAAAAACAAAACAAAACUGGGAUCAGAUGGCAUCCUAGUUUUGGUACCGGGGCAUUGCCAGUCACCUGAGCUAAGGAAGCAGGCAGGCUGGUGGUUCUUCUGUUCUCAA: 0.67
CUGGUCUGCUCAUGCUUCAUUGUCCAGAAAGCAGCAGGAAAUUGUAGUUCCGUUGUCAUCAAGCAGGAAGCAAAUGCAACACCGACCAAGGCAGUUUAGGUCAAGAGCUG: 0.434
UUUUUAAGACAAAUGUGAAAAUGACCAAAUCACACCAAGCAACUAACUCAAAAAUUAGGAUGCAAGAGAAAAUACUUCUCUAGAUCCAAACACUGGCCUUCUGUUCCUCU: 0.289
GAUAACAAGGUUCUAAUAGUGUUUAAAUGUACUGGUAACCUGGUUCCAAUAGUUGUGUUUGCCCAAGCCUUUCUCGGCAUCAUCUUGUAUUCCUUAUCAGAUAGUAAGUA: 0.232
AGUGGCACGGAUGAAGGGAUGCGAUGCAGUGUCUGGCACACUGAGAUGUUCCGCAAAGGAUGCUGAUCUACCAGGUUUAGCUCAACCUGGAAUAGCUGACUACCCAGGGA: 0.792
GAGAGAGGGGAAGGAAAUGGAACAAGUUGUGUUUGUGUUAGCAUGUGGGUGAUGUAAACUUCAAAUUGGGAGAUGUUCCGACCCCCACUCCCAUAUAAGCAUUCAAUCAG: 20.3
CAGCACAGCCUUUAUUGAGCUUUACAACUAACAACCUGAUAGUUGGCAGUUAAUUCACAGUUACAGAUAAUGCUUUUAUUUACAUAAAUAUACCAAGUAGUACCCUCUUA: 0.544

Study 4
Target: Ras GTPase-activating protein-binding protein 1, full length (G3BP1, Homo sapiens, UniProt Q13283)
UniProt Q13283, sequence (whole entry, looked up): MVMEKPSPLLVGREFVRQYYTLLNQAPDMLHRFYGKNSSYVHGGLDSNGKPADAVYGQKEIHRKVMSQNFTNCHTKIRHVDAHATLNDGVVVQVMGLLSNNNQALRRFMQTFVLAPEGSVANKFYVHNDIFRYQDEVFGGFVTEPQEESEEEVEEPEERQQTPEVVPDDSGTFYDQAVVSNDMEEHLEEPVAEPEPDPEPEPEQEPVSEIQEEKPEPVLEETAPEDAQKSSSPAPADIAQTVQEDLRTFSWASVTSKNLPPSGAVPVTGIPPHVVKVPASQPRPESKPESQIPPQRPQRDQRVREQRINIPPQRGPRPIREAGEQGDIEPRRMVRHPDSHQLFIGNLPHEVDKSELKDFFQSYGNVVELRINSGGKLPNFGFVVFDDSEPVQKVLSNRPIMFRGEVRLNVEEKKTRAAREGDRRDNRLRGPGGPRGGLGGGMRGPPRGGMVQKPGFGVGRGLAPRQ
Method: RNA Bind-n-Seq
Molecule type: RNA
Medium: in vitro
Concentration: 200 nM
Setting: whole 134-nt RNA, ends assumed
With: 150 mM LiCl
Relative to: input library
Reading: higher = stronger binding
Measurement: log2 enrichment
Library: 7-deaza-guanosine replaces G
Shared flanks, not repeated: GGGAGUUCUACAGUCCGACGAUC … UGGAAUUCUCGGGUGUCAAGG
UCCUGUGCUACACAUCGUAUGUACCGAAUCGGGGAAAAAGGGGUGGGGUUUUUUUGGGGAAAGUAUUAUGUUACGCCGUUCGGAUCUGCA: -1.18
UUUCUAGGCAAGAGGAGGAACGACGUAGAAGAGAGGAAGAGAUGAUGAUUCGUCAACGUGAGAUGGAAGAACAAAUGAGGCGCCAAAGAG: 0.999
UAUCAGGAGGGCAGACUUCAAAAGCUACUAAAAAUGAACGGCCCUGAAGAUCUUCCCAAGUCCUAUGACUAUGACCUUAUCAUCAUUGGA: -1.6
CUGUGCUACACAUCGUAUGUACCGAAUCGGGGUUUUUUGGGGUUUUUUGGGGUUUUUUGGGGAAAGUAUUAUGUUACGCCGUUCGGAUCU: 1.62
UAGCUAAACUAAUGUCAACUUAUUUCCUUUUUUCCUUUAGCCACCAUCAAAGAACAGACGAGAGAGAACAGAACUGAAGCCUGAUUUCUU: -0.378
ACCAUGCAGGUGGGCAUCUUUGGGAAGUGGGGCAAGGGGGGGAUAGGGAAGGGGGUAACACUUUGGGAACAGGUGGUCCCAGGUCGUUUC: 0.291
UUGGAGGUGGAUUUUGUUUAUUUUUUUAGCUCAUUUCCAGGGGUGGGAAUUUUUUUUUAAUAUGUGUCAUGAAUAAAGUUGUUUUUGAAA: -0.508
ACCAUGCAGGUGGGCAUCUUUGGGAAGUGGGGCAAGGGGGGGAUAGGGAGGGGAAAAACACUUUGGGAACAGGUGGUCCCAGGUCGUUUC: 0.317

Some of these lines once more (study 2):
CAGCGAGC: 0.0582
CTCGATGC: -0.0488
GGTCACAC: 0.00856
CTTCAAGA: -0.19
